# Measurements gathered from unrelated publications.
# Each numbered part is a random draw from the data of one study; scales do not carry over between parts.

# Sample 1
# Target: Histone acetyltransferase KAT6A, both winged helices, GST fusion (KAT6A, Homo sapiens, UniProt Q92794, residues 1-181)
# Method: protein binding microarray
# Form: double-stranded DNA, one strand shown
# Sample: in vitro
# Concentration: not given
# Setting: 8-mer, flanks averaged, mean of 2 arrays, mostly near background
# Relative to: not given
# Direction: higher = stronger binding
# Construct (chain): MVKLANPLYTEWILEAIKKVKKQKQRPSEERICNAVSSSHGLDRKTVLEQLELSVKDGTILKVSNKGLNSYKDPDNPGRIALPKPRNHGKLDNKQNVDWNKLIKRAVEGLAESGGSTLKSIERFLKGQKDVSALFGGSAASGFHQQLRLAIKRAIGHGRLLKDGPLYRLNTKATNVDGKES
Oligonucleotide,E-score
GACTACTA,0.0174
ATGTGATG,-0.202
GTACAGGA,-0.0962
AAAAGGAC,-0.129
ATCTCCTC,-0.166
AAATTTCC,-0.151
AGGCAATC,-0.192
AGATTCGC,0.156
GGTGAATA,-0.0471
ACGTGGGC,-0.0134
CGGTTCGA,0.171
CGACGTGA,0.00695
GAGATATC,-0.0504
GCCGAGAA,0.236
GGAGCGCC,0.0978
GTAGCTAC,0.0743
CCATGGAG,-0.145
CACAAGAC,-0.141
GCGCTTGA,0.277
CGACTCCC,-0.0194
CAACGAGA,-0.104
GATTCTTA,-0.0822
ACAGAGCC,0.0188
ATATCCCA,0.0236

# Sample 2
# Target: Myc proto-oncogene protein, bHLH-zipper, MAX partner unstated (MYC, Homo sapiens, UniProt P01106, residues 368-449)
# UniProt P01106, sequence (368-449, looked up): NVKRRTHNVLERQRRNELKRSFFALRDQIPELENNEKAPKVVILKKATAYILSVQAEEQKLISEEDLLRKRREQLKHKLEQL
# Method: protein-binding microarray
# Form: double-stranded DNA, one strand shown
# Sample: in vitro
# Concentration: not given
# Setting: k-mer, scored over probes, only values ≥0.25
# Direction: higher = stronger binding
Oligonucleotide,E-score
AGTGCACG,0.314
ACGCGGTC,0.348
TGCGGCAA,0.28
ACACCGTG,0.333
ACCATGTG,0.481
CGCCGCGC,0.338
ACGCTAAC,0.289
CACACCCG,0.282
ACCCCGTG,0.403
GCATGTCA,0.367
CCACATGC,0.468
ATCGCACG,0.315
ACCCTCCC,0.286
ATGCCATG,0.36
AATCATGT,0.303
CCCGTGTC,0.29
ACGCATTG,0.318
TCGCCACA,0.312
GCGTGAGC,0.308
CGTGCCGA,0.268
AAGCCACG,0.373
AACACGCT,0.373

# Sample 3
# Target: Sal-like protein 4, full length isoform B (SALL4, Homo sapiens, UniProt Q9UJQ4-2, residues 1-616)
# Method: universal PBM
# Form: double-stranded DNA, one strand shown
# Sample: in vitro
# Concentration: not given
# Setting: 8-mer, flanks averaged, mean of replicates
# Direction: higher = stronger binding
# Residues (chain): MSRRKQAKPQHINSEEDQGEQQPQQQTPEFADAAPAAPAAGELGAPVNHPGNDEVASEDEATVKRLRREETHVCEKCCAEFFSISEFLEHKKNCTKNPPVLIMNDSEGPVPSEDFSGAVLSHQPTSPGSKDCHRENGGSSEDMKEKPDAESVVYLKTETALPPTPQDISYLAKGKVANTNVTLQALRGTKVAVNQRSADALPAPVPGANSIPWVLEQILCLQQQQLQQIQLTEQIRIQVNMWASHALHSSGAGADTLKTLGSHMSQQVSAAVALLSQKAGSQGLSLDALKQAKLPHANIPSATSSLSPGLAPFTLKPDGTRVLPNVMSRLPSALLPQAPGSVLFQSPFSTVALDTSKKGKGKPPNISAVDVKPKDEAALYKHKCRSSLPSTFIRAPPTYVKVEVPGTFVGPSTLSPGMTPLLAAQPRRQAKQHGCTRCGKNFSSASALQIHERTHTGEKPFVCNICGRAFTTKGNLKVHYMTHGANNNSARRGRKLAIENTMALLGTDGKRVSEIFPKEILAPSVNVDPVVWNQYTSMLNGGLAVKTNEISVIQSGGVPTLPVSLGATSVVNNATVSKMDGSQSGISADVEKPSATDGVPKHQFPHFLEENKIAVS
Oligonucleotide,E-score
AAGCCCTC,-0.179
CACTATTA,0.215
CATCTGCC,-0.155
CTTCTTCA,0.0196
GACAAATA,0.243
TCTCAGAA,0.117
GATTAAGC,0.0781
AAAGTGTA,0.241
AAATGCCC,-0.235
CCTTGCAG,-0.294
ATCTCGAA,0.0358
CCTCGTAA,-0.0312
CGTTCCTC,-0.218
CGCCCGTC,-0.215
AGAGATCA,-0.0448
ACTGAGCC,-0.171

# Sample 4
# Target: Ras GTPase-activating protein-binding protein 1, C-terminal RGG region (G3BP1, Homo sapiens, UniProt Q13283)
# UniProt Q13283, sequence (whole entry, looked up): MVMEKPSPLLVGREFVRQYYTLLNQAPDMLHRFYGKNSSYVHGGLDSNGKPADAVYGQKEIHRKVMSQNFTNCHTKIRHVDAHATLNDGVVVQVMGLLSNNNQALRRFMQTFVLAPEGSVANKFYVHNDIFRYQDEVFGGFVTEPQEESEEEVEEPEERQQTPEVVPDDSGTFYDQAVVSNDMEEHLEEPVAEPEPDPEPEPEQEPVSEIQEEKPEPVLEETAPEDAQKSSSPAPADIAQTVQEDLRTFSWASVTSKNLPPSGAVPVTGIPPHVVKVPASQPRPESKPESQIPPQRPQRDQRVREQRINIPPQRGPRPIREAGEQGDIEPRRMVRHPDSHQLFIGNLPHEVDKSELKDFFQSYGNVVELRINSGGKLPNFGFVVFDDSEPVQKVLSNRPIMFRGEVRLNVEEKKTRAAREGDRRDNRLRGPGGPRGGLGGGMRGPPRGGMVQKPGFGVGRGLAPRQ
# Method: RNA Bind-n-Seq
# Form: RNA
# Sample: in vitro
# Concentration: 1 µM
# Setting: whole 134-nt RNA, ends assumed
# Together with: 150 mM KCl
# Relative to: input library
# Direction: higher = stronger binding
# Shared flanks, not repeated: GGGAGUUCUACAGUCCGACGAUC … UGGAAUUCUCGGGUGUCAAGG
Oligonucleotide,log2 enrichment
GCAGGAAGUAGAAACAAAUGGAAAUGCUUCGGAUAGUGGCAGGGGUGGGGGUUGCUAAGGAAAGGGUGGGAUGGGAGUGGGUAAAGAGUU,1.7
CCUCAAGUCCUGUGCUACACAUCGUAUGUACCGAAUCGGCCGGGGCCGGCCGGAAAGUAUUAUGUUACGCCGUUCGGAUCUGCACUUCCA,-0.999
AGUCCUGUGCUACACAUCGUAUGUACCGAAUCGGGGAAAAGGAAAAGGGGAAAAGGGGAAAGUAUUAUGUUACGCCGUUCGGAUCUGCAC,-0.449
CACAGACAACACGCACCCACACAGACACAGAGGGAAGGGGUUGGGAUGGGGACAGGGUGCACAGCAGGGCUGGGUAGGACCCCAGCCCCU,-1.13
GCAGGAAGUAAAAACAAAGGGAAAUGCUUCGGAUAGUGGCAGGGGUGGGGGUUGCUAAGGAAAGGGUGGGAUGGGAGUGGGUAAAGAGUU,2.12
GUCCUGUGCUACACAUCGUAUGUACCGAAUCAAACCCCCCCAAACCCAAAUUUUUAAAAAAGUAUUAUGUUACGCCGUUCGGAUCUGCAC,-0.692
UGCAGCUCUCCGGCUGGGAUCCUGGUUGACGCCAUGUCCCAGAAGCACCUUCAGAUCAACCAGACAUUUGAGGAGCUGCGACUGGUCACG,-1.65
UGGGCAUUUUGGUGGAGACGAUGAGCACCAACGACACGAUCGUCAGUGGCACGCUGCCCCAGCGCAUGGCGUCCUGCCUGGAGGUGCUGG,-1.38
CCUGUGCUACACAUCGUAUGUACCGAAUCGGGAAAAAAAGGGUUUUUUUGGGUUUUUGGGAAAGUAUUAUGUUACGCCGUUCGGAUCUGC,-1.85
UCAAGUCCUGUGCUACACAUCGUAUGUACCGAAUCGGGAGGGUGGGAAAAAGGGAAAGUAUUAUGUUACGCCGUUCGGAUCUGCACUUCC,1.46
ACCAUGCAGGUGGGCAAAAUUGGGAAGUGGGGCAAGGGGGGGAUAGGGAGGGGGGUAACACUUUGGGAACAGGUGGUCCCAGGUCGUUUC,-1.15
UGGCCCUGGUGGCAUGCGGGGAGGAAGAGGUGGCCUCAUGGAUCGUGGUGGUCCCGGUGGAAUGUUCAGAGGGGGCCGUGGUGGAGACAG,3.9
CAGCAGCAGAGUGAGUGGAUUUUAUUUUUCGUUAUUGUUGGUGGUUUAAAAAAUUCCCCCCAUGUAAUUAUUGUGAACACCUUGCUUUGU,-0.906
CACAGACAACACGCACCCACACAGACACAGAGGGAAGGGGUUGGGAUGGGGCCAGGGUGCACAGCAGGGCGGGGUAGGACCCCAGCCCCU,-0.381

# Sample 5
# Target: Interferon regulatory factor 5, full length, phosphomimetic (IRF5, Homo sapiens, UniProt Q13568-2, residues 1-514, K96S/S451D/S453D/S456D/S462D)
# Method: protein-binding microarray
# Form: double-stranded DNA, one strand shown
# Sample: in vitro
# Concentration: 250 nM
# Setting: 60-bp whole probe
# Together with: salmon DNA 0.4 mg/ml
# Relative to: random background probes
# Direction: higher = stronger binding
# Shared flanks, not repeated: GCCTAGCAC … GTCTTGATTCGCTTGACGCTGCTG
Oligonucleotide,log fluorescence [z-score]
GACGGATTCCTTCTCCTGACGTGCTAG,-0.0625
TACGATCTCAGACTGGAGACGTGCTAG,-0.232
GACGATATCTGGTATCGAGACGTGCTA,1.97
TCAGGGCTCTCTTCTGCTACTGTGCTA,-0.598
TTAGGACTGTTACTGCTTTAGTGCTAG,-0.11
TTAGGTTCCCTTTTCCTCTAGTGCTAG,0.612
TTAGGATTGGACTATCGGTTAGTGCTA,5.55
GCTCCTCTTTTTTTGGTAATGTGCTAG,0.534
TCATGTGTATATATAATACTGTGCTAG,0.404
CTGACATGTAAATGTGACATGTGCTAG,0.17
GAAATTTTCCCCTACTGTATGTGCTAG,1.72
TTAGATATCGGGTATGGATTAGTGCTA,2.16
GACGATATCGGGACTGGAAACGTGCTA,0.979
TTAGGTTTCGGTCTCGGTTCGTGCTAG,10.5
TTAGGTATGGGGTATCGGTTAGTGCTA,2.47
TCATAGTTTCTTTTCTTACTGTGCTAG,2.81
TTAGATTTCGGGTATTGATTAGTGCTA,5.28
TCATGACTCCCTCTCTGACTGTGCTAG,-0.351
GTCGGACTGCTTTTCCTGACGTGCTAG,-0.105
TCATCTTTCGTTACTTCACTGTGCTAG,6
TTAGATCTCATTCTCGATTAGTGCTAG,0.864
ATTTTTTTGCATTGCTTCTAGTGCTAG,1.16

# Sample 6
# Target: RNA binding protein fox-1 homolog 2, RRM domain, GST-SBP tag (RBFOX2, Homo sapiens, UniProt O43251-10, residues 100-194)
# Method: RNA Bind-n-Seq
# Form: RNA
# Sample: in vitro
# Concentration: 365 nM
# Setting: natural RNA segment, single round, ends assumed
# Relative to: no-protein control
# Direction: higher = stronger binding
# Shared flanks, not repeated: GGGAGUUCUACAGUCCGACGAUC … UGGAAUUCUCGGGUGCCAA
# Construct (chain): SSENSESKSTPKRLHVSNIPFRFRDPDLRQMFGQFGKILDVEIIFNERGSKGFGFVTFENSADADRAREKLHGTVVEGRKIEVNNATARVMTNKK
Oligonucleotide,RBNS enrichment (R)
CUUCUUCAUGGGUGGCUCAGAUGGUGGCUACACCAUUUGUGAGGAGCCAUGGCCACUCCUGUGCCGGGGAAGACAUCACAUACCUUCAGCACUUCUCACAAUGUAACUGC,0.3
AUUUUUUUCUAACCUUUCAAAAGUUUGAUUCAACCGUCUUACCUUGUAGUGUUAAGAUUCCAUACAGAGAGCCCUGUUAUGCAUACCAGUACUACAAAAUAAAGGGGAAA,0.388
ACAGAUACAGUCUCCUUGGCCUAUAAUGAAACCACUAGGACUUUAUACAGUUUUCCUUAAUUUGUUGACAUAUAAAUGGUAAAUUAUAUUUAGGCUUAUCCUGUUUUGAA,0.789
UUUUAGGAGGUGUGCAUGGAUGCAAUAUAUGAAAAUGGGACAUUCUGGAACUGCUGGUCAGGGGACUUUGUCGCCCUGUGCACUAAAGGGCCAGAUUUUCAGCAGCCAAG,0.779
GGAGCCAGGUGGGAAAAGUGGGUGUGAUUUUUAGAUUUUGUAUUGUGGACUGAUUUUGCCUCACAUUAAAAACUCAUCCCAUGGCCAGGGCGGGCCACUGUGCUCCUGGA,2.27
CCCGUCCAACUCCCUGGAGACCCUGGAAGUGAUGUGUGCACAUCCGGUGACCCUUGGCCACCAGACAAUACAGGGAGGUACCUGGGGAGCAGCUAGGAAAUCACAGGCCC,0.362
UCCCUAGCAAAAUGCUAGGCCUGUAGUAGUCAAGGUGCUCAAUAAAUAUUUGUUUGGGUGGUUUGUGAGCCUUGCUGCCAAGUCCUGCCUUUGGGUCGACAUAGUAUGGA,1.5
CAUCCCAACUCACACGGAAGCACGGGUCUUGUCUCAGUCUCUUCGCUGCAUUUGGAAAGCAGUCUCCUCUCGGGCCAGCGCCGGGCUGAGGUGUCCAGAGGCGGCGGCAG,0.569
AGGUGCAGAGAUGAAGUGAGCUUAGAGAUGUUGCAAAUGCUCUUUAUCCCUUCAGCUCUCUGAUCUGCUCUUUCUUCAUGAUACUUAGUCUGCAGGGCAUAUUAAGAUCA,0.423
GCUGUGUGAGAGCUGCAUGUGAGCCUGUGACCGUGAGCUGGGGUGAGCUGGGCCGCACCUACCCUGGGGCCCCAGGGAGCAGGACGCUCCGGGGCCCAGCACGUUGCCCU,20.5
CACAUAUCAUGUGCUUAGUUUGUUUAUUUUUCUCCAUCUCCCCUUGGCUUCCUAGAGUUUGGACAUAUUCCAGGCUAAAUGCUUUUACUCAAGACUACAGAAAGGUUUGA,0.347
AUAUACAAGUGUAUGAUGUACAUUUUAGUUCUUAACUUUUUUAUGGUUUCUAAUAUGUAUGACCAAUGUAGCCAUUGCUUUGAAAUGUAAAUAUAAACACGUCCUAUCCG,0.561

# Repeated from above (sample 1):
Oligonucleotide,E-score
ACGTGGGC,-0.0134
CGGTTCGA,0.171
GCGCTTGA,0.277
ACAGAGCC,0.0188
AAAAGGAC,-0.129
CACAAGAC,-0.141
AAATTTCC,-0.151
GTAGCTAC,0.0743
CAACGAGA,-0.104
GATTCTTA,-0.0822
CCATGGAG,-0.145
ATATCCCA,0.0236
GCCGAGAA,0.236
CGACTCCC,-0.0194
AGATTCGC,0.156
ATCTCCTC,-0.166
GGAGCGCC,0.0978
GTACAGGA,-0.0962
